Measurements gathered from unrelated publications.
Every numbered part comes from another study and shows a few of its results, in no order.

Study 1
Target: Interferon regulatory factor 5, full length, phosphomimetic (IRF5, Homo sapiens, UniProt Q13568-2, residues 1-514, K96S/S451D/S453D/S456D/S462D)
Technique: protein-binding microarray
Form: double-stranded DNA, one strand shown
Matrix: in vitro
Tested at: 250 nM
Notes: 60-bp whole probe
With: salmon DNA 0.4 mg/ml
Reference: random background probes
Reading: higher = stronger binding
Constant ends, left off below: GCCTAGCAC … GTCTTGATTCGCTTGACGCTGCTG
`GACGATATCGGGTGTCGAGACGTGCTA` gave a log fluorescence of 1.46 z-score.
With `GAAGGTTTCCTACTGCTGACGTGCTAG` the log fluorescence was 0.267 z-score.
`TTAGATTTCGGGATTCGATTAGTGCTA` gave a log fluorescence of 3.63 z-score.
For `GACGAACTGGGGTATCGAGAGGTGCTA`, the log fluorescence was 0.0138 z-score.
`GACGGTTCCGGTTTCGGGCCGTGCTAG` has a log fluorescence of 4.08 z-score.
The log fluorescence of `GACGTTATCGGGTATCGAGACGTGCTA` is reported as 3.48 z-score.

Study 2
Target: Sal-like protein 4, full length isoform A (SALL4, Homo sapiens, UniProt Q9UJQ4, residues 1-1053)
Chain of UniProt Q9UJQ4 (whole entry, looked up): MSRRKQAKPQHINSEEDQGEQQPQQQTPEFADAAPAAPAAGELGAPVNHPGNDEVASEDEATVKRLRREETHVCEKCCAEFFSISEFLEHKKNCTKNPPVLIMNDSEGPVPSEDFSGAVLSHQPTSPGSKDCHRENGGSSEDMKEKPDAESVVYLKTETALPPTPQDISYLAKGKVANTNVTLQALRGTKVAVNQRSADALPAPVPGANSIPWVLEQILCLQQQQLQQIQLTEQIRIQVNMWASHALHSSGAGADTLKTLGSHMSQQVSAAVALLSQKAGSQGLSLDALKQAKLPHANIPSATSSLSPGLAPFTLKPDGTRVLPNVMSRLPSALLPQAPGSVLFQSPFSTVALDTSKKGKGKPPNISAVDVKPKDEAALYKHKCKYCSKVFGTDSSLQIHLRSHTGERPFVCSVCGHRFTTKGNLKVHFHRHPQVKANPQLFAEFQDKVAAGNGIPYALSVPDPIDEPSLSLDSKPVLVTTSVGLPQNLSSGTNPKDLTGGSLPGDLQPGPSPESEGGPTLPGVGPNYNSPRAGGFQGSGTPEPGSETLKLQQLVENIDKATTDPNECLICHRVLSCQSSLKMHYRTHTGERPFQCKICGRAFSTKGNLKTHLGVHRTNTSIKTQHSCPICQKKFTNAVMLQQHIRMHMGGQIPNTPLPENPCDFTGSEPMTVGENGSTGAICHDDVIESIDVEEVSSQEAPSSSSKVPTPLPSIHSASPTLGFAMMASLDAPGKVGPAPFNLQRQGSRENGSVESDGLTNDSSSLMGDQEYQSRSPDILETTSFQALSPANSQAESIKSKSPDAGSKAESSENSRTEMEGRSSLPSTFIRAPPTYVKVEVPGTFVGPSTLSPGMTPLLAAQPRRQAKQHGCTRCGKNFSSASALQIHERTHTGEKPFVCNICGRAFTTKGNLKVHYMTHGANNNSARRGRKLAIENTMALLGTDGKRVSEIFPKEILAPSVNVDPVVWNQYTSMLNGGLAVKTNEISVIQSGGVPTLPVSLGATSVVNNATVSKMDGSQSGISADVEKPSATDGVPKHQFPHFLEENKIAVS
Technique: universal PBM
Form: double-stranded DNA, one strand shown
Matrix: in vitro
Tested at: 600 nM
Notes: 8-mer, flanks averaged, mean of replicates
Reading: higher = stronger binding
`AAGAAAAT` has an E-score of 0.319.
`ACGCCAGA` gave an E-score of -0.154.
With `ATCATCAA` the E-score was 0.233.
`AACTCCAA` gave an E-score of 0.00933.
The E-score of `CTGCTCAA` is reported as -0.102.
The E-score of `CCATCGCC` is reported as -0.28.
The E-score of `AGATTGTC` is reported as -0.0474.

Study 3
Target: Histone acetyltransferase KAT6A, winged helix 1, GST fusion (KAT6A, Homo sapiens, UniProt Q92794, residues 1-85)
Technique: protein binding microarray
Form: double-stranded DNA, one strand shown
Matrix: in vitro
Tested at: not given
Notes: 8-mer, flanks averaged, mean of 2 arrays, mostly near background
Reference: not given
Reading: higher = stronger binding
Target sequence (chain): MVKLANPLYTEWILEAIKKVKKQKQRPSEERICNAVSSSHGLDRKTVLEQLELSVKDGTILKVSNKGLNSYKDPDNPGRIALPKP
`CCCAGTAC` has an E-score of -0.212.
For `GAGGGCCA`, the E-score was -0.165.
With `ATCGTCGG` the E-score was 0.157.
`GGCGTCAA` gave an E-score of -0.00019.
`AGATCAGG` gave an E-score of -0.206.

Other studies, line by line
The fold induction of `PhoQ, residues 284 288 289 292 302 303 NSMLDC` is reported as 4.24 (PhoP, residues 12 14 15 18 19 SPWRL (Escherichia coli, UniProt P23836); Sort-seq, item: YFP reporter; E. coli; PhoQ-PhoP variant library, with: 10 µM Mg2+; reference: high Mg2+ state, higher = stronger signaling).

Some of these lines once more (study 2):
The E-score of `CCATCGCC` is reported as -0.28.
`AACTCCAA` gave an E-score of 0.00933.
`ACGCCAGA` gave an E-score of -0.154.
